Experimental data of several laboratories.
Parts stem from different laboratories: compare values within a part only.

Series 1 — technique: RNA Bind-n-Seq; molecule type: RNA; matrix: in vitro; tested at: 1 µM; setting: whole 134-nt RNA, ends assumed; together with: 150 mM KCl; reference: input library; direction: higher = stronger binding; measurement: log2 enrichment
Target: Ras GTPase-activating protein-binding protein 1, C-terminal RGG region (G3BP1, Homo sapiens, UniProt Q13283)
UniProt Q13283, sequence (whole entry, looked up): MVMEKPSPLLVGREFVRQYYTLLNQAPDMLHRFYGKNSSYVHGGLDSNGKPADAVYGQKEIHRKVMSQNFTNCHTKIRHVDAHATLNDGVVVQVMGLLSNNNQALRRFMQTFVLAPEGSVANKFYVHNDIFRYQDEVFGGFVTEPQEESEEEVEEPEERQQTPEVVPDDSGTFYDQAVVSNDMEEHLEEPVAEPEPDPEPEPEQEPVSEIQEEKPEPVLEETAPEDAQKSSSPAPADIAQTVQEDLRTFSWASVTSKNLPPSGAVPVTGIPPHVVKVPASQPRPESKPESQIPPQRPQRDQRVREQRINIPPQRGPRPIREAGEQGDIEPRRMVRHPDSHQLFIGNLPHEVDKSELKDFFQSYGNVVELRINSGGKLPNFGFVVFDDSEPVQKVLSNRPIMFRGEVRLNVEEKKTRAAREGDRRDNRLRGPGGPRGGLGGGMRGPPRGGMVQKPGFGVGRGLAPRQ
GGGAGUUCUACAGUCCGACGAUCUCCUGUGCUACACAUCGUAUGUACCGAAUCGGGCCCCCGGGGCCCCCGGGCCCCCGGGGAAAGUAUUAUGUUACGCCGUUCGGAUCUGCAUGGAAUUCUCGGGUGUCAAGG: -1.87
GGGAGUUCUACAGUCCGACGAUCAGUCCUGUGCUACACAUCGUAUGUACCGAAUCGUGUGUGUGUGUGUGUGUGUGUGUGAAAGUAUUAUGUUACGCCGUUCGGAUCUGCACUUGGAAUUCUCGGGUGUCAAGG: 1.45
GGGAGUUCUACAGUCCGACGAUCCACAGACAACACGCACCCACACAGACACAGAGGGAAGGGGUUGGGUUGGGGACAGGGUGCACAGCAGGGCGGGGUAGGACCCCAGCCCCUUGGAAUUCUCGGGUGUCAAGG: -0.305
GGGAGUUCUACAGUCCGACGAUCACCAUGCAGGUGGGCAUCUUUGGGAAGUGGGGCAAGGGGGGGAUAGGGAGGGGGGUCACACUUUGGGAACAGGUGGUCCCAGGUCGUUUCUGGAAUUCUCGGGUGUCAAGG: 1.9
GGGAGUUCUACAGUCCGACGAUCAAGUCCUGUGCUACACAUCGUAUGUACCGAAUCGGAAAAAGGGAAAAAGGAAAAAGGAAAGUAUUAUGUUACGCCGUUCGGAUCUGCACUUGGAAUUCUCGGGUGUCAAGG: -1.91
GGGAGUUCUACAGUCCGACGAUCCAAGUCCUGUGCUACACAUCGUAUGUACCGAAUCGGGCCCGGGGCCCGGGCCCGGAAAGUAUUAUGUUACGCCGUUCGGAUCUGCACUUCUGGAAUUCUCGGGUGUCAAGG: -2.14
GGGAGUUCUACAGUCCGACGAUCUCCUGUGCUACACAUCGUAUGUACCGAAUCGGCCCCCCGGGGCCCCCCGGCCCCCCGGGGAAAGUAUUAUGUUACGCCGUUCGGAUCUGCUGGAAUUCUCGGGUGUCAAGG: -1.41
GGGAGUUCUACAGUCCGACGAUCAAGUCCUGUGCUACACAUCGUAUGUACCGAAUCGGUUUGGUUUUUUUGGUUUUUGGAAAGUAUUAUGUUACGCCGUUCGGAUCUGCACUUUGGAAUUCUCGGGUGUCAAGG: -1.79
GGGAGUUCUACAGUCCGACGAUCUUGCGGCAGCCGCCCCCUUCUGCGCGGUCACGCCGAGCCAGCGCCUGGGCCUGGAACCGGGCCGUAGCCCCCCCAGUUUCGCCCACCACCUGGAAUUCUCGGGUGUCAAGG: -0.255
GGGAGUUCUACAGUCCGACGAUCACCAUGCAGGUGGGCAUCUUUGGGAAGUGGGGCAAGGGGGGGAUAGGGAGGGGGGUGACACUUUGGGAACAGGUGGUCCCAGGUCGUUUCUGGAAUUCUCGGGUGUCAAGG: 2.04
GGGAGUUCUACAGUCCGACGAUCUCAAGUCCUGUGCUACACAUCGUAUGUACCGAAUCGGUUUUUGGUUUGGAAAGGAAAGUAUUAUGUUACGCCGUUCGGAUCUGCACUUCCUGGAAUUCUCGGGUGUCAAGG: -1.35
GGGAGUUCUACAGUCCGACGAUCCAAGUCCUGUGCUACACAUCGUAUGUACCGAAUCGGAGGUUUUUGGAAAAAAAGGAAAGUAUUAUGUUACGCCGUUCGGAUCUGCACUUCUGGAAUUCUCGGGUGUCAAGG: -1.62
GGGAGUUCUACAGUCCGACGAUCAGUCCUGUGCUACACAUCGUAUGUACCGAAUCGGGAAAGGGAAAGGGUUUUUUUGGGAAAGUAUUAUGUUACGCCGUUCGGAUCUGCACUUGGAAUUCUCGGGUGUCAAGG: 0.275
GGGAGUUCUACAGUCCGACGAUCGUCCUGUGCUACACAUCGUAUGUACCGAAUCGGAAAAAAAGGAAAAAAAGGAAAAAGGAAAGUAUUAUGUUACGCCGUUCGGAUCUGCACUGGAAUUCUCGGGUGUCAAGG: -1.64

Series 2 — technique: universal PBM; molecule type: double-stranded DNA, one strand shown; matrix: in vitro; tested at: not given; direction: higher = stronger binding; measurement: E-score
Target: Sal-like protein 4, full length isoform B (SALL4, Homo sapiens, UniProt Q9UJQ4-2, residues 1-616)
Setting: 8-mer, flanks averaged, mean of replicates
AGGGCAAA: -0.0817
ACCCTCAA: 0.0926
ATGTCTTA: 0.16
AATGACGA: 0.219
AAGTACGC: -0.00826
ATGTAAAT: 0.332
TCAGAACA: 0.16
GGCGCTTA: -0.213
ATCCTCCC: -0.285
GGTTGAAC: -0.0703
CGCGGGTC: -0.302
TACCACAA: 0.256
ATGGAACC: -0.0408
GTTCATTA: 0.166
GACAGCGA: -0.209
AATGTTGG: 0.129
CATTGTCC: 0.0325
ACACCTCC: -0.141
ACTGCACA: 0.00436
GTCGACCA: -0.127
AGCTGTCG: -0.141
ACTTAGAT: 0.1
AATTCTCA: 0.181
GAATGGCA: -0.00104
ACTCTTAC: 0.196

Series 3 — technique: protein-binding microarray; molecule type: double-stranded DNA, one strand shown; matrix: in vitro; tested at: 250 nM; setting: 60-bp whole probe; together with: salmon DNA 0.4 mg/ml; reference: random background probes; direction: higher = stronger binding; measurement: log fluorescence; constant ends, left off below: GCCTAGCAC … GTCTTGATTCGCTTGACGCTGCTG
Target: Interferon regulatory factor 5, full length, phosphomimetic (IRF5, Homo sapiens, UniProt Q13568-2, residues 1-514, K96S/S451D/S453D/S456D/S462D)
AGTGTTTGCCCTATTTAAGAGTGCTAG: 0.0129 z-score
GACGGTATCGGGGTTCGGGACGTGCTA: 1.18 z-score
CACTGCATCTGATTTCTCAAAGTGCTA: 0.695 z-score
TTAGATTTCGGCTTTCGATTAGTGCTA: 8.27 z-score
GACGGTATCAGTATCGAGACGTGCTAG: 3.2 z-score
TCATCTTTGCTCATTTTTACTGTGCTA: 1.23 z-score
TTAGATACCAGTATCGATTAGTGCTAG: 7.19 z-score
TTTCAGCTGTTTTTCTCACCGTGCTAG: 6.85 z-score
TTAGGACTGGGACTAGGTTAGTGCTAG: -0.345 z-score
TTAGGTTTGCTTATCCTTTAGTGCTAG: 0.0301 z-score
TCAGACCTCGTCTCTATCACTGTGCTA: 0.465 z-score
GACGGTTTCGGTTTCGGGAGGTGCTAG: 10.9 z-score
GACGGTATCGGGTATCCGGACGTGCTA: 3.02 z-score
TTAGGACTGCTACTGTTTTAGTGCTAG: -0.0469 z-score
GACGATTCCAGTTACGAGACGTGCTAG: 0.0136 z-score
GACGGACCGGGTTTCGGGACGTGCTAG: 1.62 z-score
CACGGACTGGACACTGGGGACGTGCTA: -0.609 z-score
GCCGGTTTCCTTTTCCTGACGTGCTAG: 1.33 z-score
TTAGGTTTCGGGACTGGGTTTGTGCTA: 6.06 z-score
TCATTTTCGTTTTTATTACTGTGCTAG: 7.71 z-score
TTAGATTTCGGGTTTTGATTAGTGCTA: 4.67 z-score
GACGGACTGGGTTTCGGGACGTGCTAG: 2.4 z-score
GACGACTTCAGTTTCGAGACGTGCTAG: 5.14 z-score
TTAGATATCCTACTGCTTTAGTGCTAG: 0.248 z-score
GACGGTTTCAGTATCGGGACGTGCTAG: 5.5 z-score

Series 4 — technique: RNA Bind-n-Seq; molecule type: RNA; matrix: in vitro; tested at: 365 nM; reference: no-protein control; direction: higher = stronger binding; measurement: RBNS enrichment (R)
Target: RNA binding protein fox-1 homolog 2, RRM domain, GST-SBP tag (RBFOX2, Homo sapiens, UniProt O43251-10, residues 100-194)
Setting: natural RNA segment, single round, ends assumed
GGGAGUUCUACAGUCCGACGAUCGCUUUUUUUCUAGUUUUAUGGACUUGGUUACUGUAAUAAUGUCUUGUUUUUAGCCAUGUAACUACAAACAGAUAUUCUCUUGAUGUCUUAGUAAAUUUGCAUUUGAUAUAUGGAAUUCUCGGGUGCCAA: 1.63
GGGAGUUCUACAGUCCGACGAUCUUAGAAGCAAAUAGUGUGAUUUUCAAGACUUCAAAUACAAAUUUAGUUUAAGUGUUUGAACAACUAUAUGCACUUACGGUUGUGUGUUUAAAAUGUCUCUCUCACCCCCUUGGAAUUCUCGGGUGCCAA: 0.443
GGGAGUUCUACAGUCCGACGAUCUCCCGUUGUAUCCAGAGUUCUUAGAGCUUGUGUCUAAAGGGUAAUUCCCCAACCCUUCCUUAUGAGCAUUUUUAGAACAUUGGCUAAGACUAUUUUCCCCCAGUAGCGCUUGGAAUUCUCGGGUGCCAA: 0.574
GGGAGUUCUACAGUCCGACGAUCGUCCUUUUGGAUCUGGUCCUGCUCCUACCUGCUCCUUCUCUGCAGAUUGUUAGAAAGUGAACUUUGCUCAACCCAGACCCCGGCAGCCCAGGCUGGACCAAGGGUGGGCCUGGAAUUCUCGGGUGCCAA: 0.739
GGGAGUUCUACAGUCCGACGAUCGUACAUUUGUUGUUGCUUGUAAAUUAACUACUCGUAGUAAUAUUUCACUUUUACAUUAUAAUAAAAAGUUUGGAAAAGUUACUUUUCUUGUUUUAUUUUUACAUCAUAUUUGGAAUUCUCGGGUGCCAA: 0.743
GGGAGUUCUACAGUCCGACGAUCUCUGUCCCUUGUGAAAGCAUGGCAGCUUCAGGCCCAUCUGCGGGCAUGUGGCUGUUUUUCCUGGGAUUGACUCCUGAAAUGGAAUGAGCAAUAGUGUAGCUUUUCUACGGUGGAAUUCUCGGGUGCCAA: 3.81
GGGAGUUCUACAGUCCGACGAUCGUGAUUUUGUUCCAGAUGUCUAUGGCUGGGUGUGUGGGGGAGGAGCACUCUCAUCUGCAGGACUCUGCUUGAUCCUCUGCUUCAUAGCCCUUCCCCAUCUCUCCUCACCAUGGAAUUCUCGGGUGCCAA: 0.614
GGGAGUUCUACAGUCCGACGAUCGAAGUGAUUUCUCAAAAGUAAAGAUACUAUCCCAGAGGGUCGUGGGCAGAAAUGAAGGGAUUUCAUUUGAACUUAGAGCAUGAUGAAUUUGAGUGGGUGCACAGGAAGCAUGGAAUUCUCGGGUGCCAA: 23.2
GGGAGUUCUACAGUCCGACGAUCGGAGCUUAGACGCCACAUCAGGGUAAUGAGGGGGAUCACGGAGAAUCAAAACCCUCAGAGGGUCCUGAUGAGCAGAGAGUCUUUCCCUGGCCUUUCGAGCUUCAGAGAUGUGGAAUUCUCGGGUGCCAA: 0.632
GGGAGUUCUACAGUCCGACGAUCAAGAAGUUAACAUGAACUCUUGAAGUCACACCAGGGCAACUCUUGGAAGAAAUAUAUUUGCAUAUUGAAAAGCACAGAGGAUUUCUUUAGUGUCAUUGCCGAUUUUGGCUUGGAAUUCUCGGGUGCCAA: 0.594
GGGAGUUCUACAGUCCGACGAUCUUAAGAUAGUUUGGCUCCAGAGUUGGUGUUUUUAACCACUGUGUUUUCUCACUUUUGUUCAGUGUUUUUAUAAUAUUUGAUAAUAAAAUUCAAGAAAAUCCUAACUAAUGUGGAAUUCUCGGGUGCCAA: 0.393
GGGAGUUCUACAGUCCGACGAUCGGGGGAGAGCCCCCCAGCUUCCUGCCACAGAGCACAGGCCUGUAUGUAGCUCAUAGUCCCCACAAUGUCCUGGGAAGGAACAGAGGACUGGUACAGUCCCAGCUCUGCUCUGGAAUUCUCGGGUGCCAA: 0.577

Repeated from above (series 3):
GACGATTCCAGTTACGAGACGTGCTAG: 0.0136 z-score
GACGGACCGGGTTTCGGGACGTGCTAG: 1.62 z-score
CACGGACTGGACACTGGGGACGTGCTA: -0.609 z-score
GCCGGTTTCCTTTTCCTGACGTGCTAG: 1.33 z-score
TTAGGTTTCGGGACTGGGTTTGTGCTA: 6.06 z-score
TCATTTTCGTTTTTATTACTGTGCTAG: 7.71 z-score
TTAGATTTCGGGTTTTGATTAGTGCTA: 4.67 z-score
GACGGACTGGGTTTCGGGACGTGCTAG: 2.4 z-score
GACGACTTCAGTTTCGAGACGTGCTAG: 5.14 z-score
